Assay results of several laboratories.
Each numbered part is a random draw from the data of one study; scales do not carry over between parts.

Set 1 — method: universal PBM; molecule type: double-stranded DNA, one strand shown; sample: in vitro; tested at: not given; direction: higher = stronger binding
Target: Sal-like protein 4, full length isoform B (SALL4, Homo sapiens, UniProt Q9UJQ4-2, residues 1-616)
Notes: 8-mer, flanks averaged, mean of replicates
Residues (chain): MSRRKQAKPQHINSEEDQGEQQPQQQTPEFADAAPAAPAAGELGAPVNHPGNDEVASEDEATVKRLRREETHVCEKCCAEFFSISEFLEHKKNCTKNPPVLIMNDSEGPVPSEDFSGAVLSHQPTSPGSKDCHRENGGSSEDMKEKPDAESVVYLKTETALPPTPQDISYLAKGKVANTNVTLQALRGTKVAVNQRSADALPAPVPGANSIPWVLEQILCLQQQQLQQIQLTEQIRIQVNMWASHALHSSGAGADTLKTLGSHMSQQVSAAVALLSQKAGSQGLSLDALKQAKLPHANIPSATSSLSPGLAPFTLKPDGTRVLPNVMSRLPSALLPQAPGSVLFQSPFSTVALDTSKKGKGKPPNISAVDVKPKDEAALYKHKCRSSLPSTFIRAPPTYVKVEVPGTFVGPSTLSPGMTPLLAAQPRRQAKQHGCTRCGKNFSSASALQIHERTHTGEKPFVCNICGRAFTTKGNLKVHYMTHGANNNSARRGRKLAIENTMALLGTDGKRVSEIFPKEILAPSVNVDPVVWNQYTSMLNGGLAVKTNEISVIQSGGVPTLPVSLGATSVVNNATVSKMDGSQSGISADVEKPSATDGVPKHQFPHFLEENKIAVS
With `ACATAGCA` the E-score was 0.108.
`ACCAGACT` gave an E-score of -0.182.
`GGTGCGTA` gave an E-score of -0.123.
`AGGCCCCC` gave an E-score of -0.406.
`AGGAAGGA` has an E-score of 0.0582.
`AATATTCC` has an E-score of 0.369.
For `CGGTCAAG`, the E-score was -0.183.
The E-score of `ACATAATC` is reported as 0.326.
`AAAGCTGG` gave an E-score of -0.13.
The E-score of `AGCTATAT` is reported as 0.331.
`CGTGCTAA` gave an E-score of 0.022.
`TGGGCAAA` has an E-score of -0.0615.
`AGTGCAAG` gave an E-score of 0.0882.
With `AGACCTAT` the E-score was 0.198.
The E-score of `CTCTGTAC` is reported as 0.0839.
The E-score of `GAAGCCGA` is reported as -0.226.
`CGATGAGA` has an E-score of 0.0339.
`ATGACGCA` gave an E-score of 0.0578.
`ATGTACCG` has an E-score of -0.0608.
With `CAAGCTAA` the E-score was -0.103.
`TATTAGAA` has an E-score of 0.357.
`AGACGTAT` has an E-score of 0.152.
`CCCTAGGC` has an E-score of -0.162.
`ATCCCTGA` gave an E-score of -0.111.
`GGTATCTA` has an E-score of 0.241.

Set 2 — method: protein-binding microarray; molecule type: double-stranded DNA, one strand shown; sample: in vitro; tested at: 2540 nM top; notes: 60-bp whole probe; added: salmon DNA 0.4 mg/ml; reference: random background probes; direction: higher = stronger binding; all sequences stand within: GCCTAGCAC … GTCTTGATTCGCTTGACGCTGCTG
Target: Interferon regulatory factor 3, full length, phosphomimetic (IRF3, Homo sapiens, UniProt Q14653, residues 1-427, S386D/S396D/S398D/S402D/T404D/S405D)
Chain of UniProt Q14653 (whole entry, unmodified, looked up): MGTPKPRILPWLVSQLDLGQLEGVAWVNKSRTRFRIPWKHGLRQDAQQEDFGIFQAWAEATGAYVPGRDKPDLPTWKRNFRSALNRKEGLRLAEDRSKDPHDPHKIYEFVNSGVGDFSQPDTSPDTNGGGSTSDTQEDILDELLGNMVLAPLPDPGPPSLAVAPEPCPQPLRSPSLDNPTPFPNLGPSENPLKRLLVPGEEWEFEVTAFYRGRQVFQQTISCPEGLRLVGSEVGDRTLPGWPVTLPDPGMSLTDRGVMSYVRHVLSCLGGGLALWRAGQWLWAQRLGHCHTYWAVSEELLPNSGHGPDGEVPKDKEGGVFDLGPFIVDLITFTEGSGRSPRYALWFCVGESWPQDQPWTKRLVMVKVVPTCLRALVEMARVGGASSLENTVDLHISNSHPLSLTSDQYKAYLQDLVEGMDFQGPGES
`GACGATCTCAGCATCGAGACGTGCTAG` — result for “fitted relative affinity”: 0.146 z-score.
`TCATTTCTACTTCTGTTACTGTGCTAG`: “fitted relative affinity” 2.63 z-score.
Under “fitted relative affinity”, `TCCTTTATGTACTCTCTACATGTGCTA` is recorded as 1.5 z-score.
Under “fitted relative affinity”, `CATCCAGCAGAGAGCCTCAGGTGCTAG` is recorded as -0.1 z-score.
Under “fitted relative affinity”, `GACGTACTGCTTATCCTGACGTGCTAG` is recorded as 0.16 z-score.
`CAGAAAATAGAAACTCGTGTTGTGCTA` — result for “fitted relative affinity”: 0.154 z-score.
For `GACGGTTTCGTCTTTCGGGACGTGCTA`, “fitted relative affinity” read 3.81 z-score.
`GACGGACTGGGTTTCGGGCCGTGCTAG`: “fitted relative affinity” 0.157 z-score.
`GACGATAACAGTTTCGAGACGTGCTAG`: “fitted relative affinity” 2.09 z-score.
`TTAGGTATCGGGACTCGGTTAGTGCTA` — result for “fitted relative affinity”: 1.12 z-score.
For `GTTTATTTATTTTTACATTAGTGCTAG`, “fitted relative affinity” read 1.58 z-score.

Set 3 — method: protein binding microarray; molecule type: double-stranded DNA, one strand shown; sample: in vitro; tested at: not given; reference: not given; direction: higher = stronger binding
Target: Histone acetyltransferase KAT6A, winged helix 1, GST fusion (KAT6A, Homo sapiens, UniProt Q92794, residues 1-85)
Notes: 8-mer, flanks averaged, mean of 2 arrays, mostly near background
Residues (chain): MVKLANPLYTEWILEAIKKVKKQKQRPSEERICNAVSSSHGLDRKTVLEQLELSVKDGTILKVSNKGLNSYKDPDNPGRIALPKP
For `CAGCTCCA`, the E-score was -0.254.
The E-score of `GATCAACC` is reported as 0.0421.
For `ATCTAATC`, the E-score was -0.106.
The E-score of `AAGACGAC` is reported as -0.0496.
`ATTTGGCC` gave an E-score of -0.0933.
With `CATAGTGG` the E-score was -0.0458.
The E-score of `CCTGTCCG` is reported as 0.026.
With `CTAGCAGA` the E-score was -0.24.
For `ATAGCTAC`, the E-score was -0.174.
For `CTCGACGC`, the E-score was 0.0716.
The E-score of `GTGAATAA` is reported as -0.166.
With `ACAGATAC` the E-score was -0.0544.
The E-score of `ACCCTCGT` is reported as 0.0304.
With `ACGCCCAC` the E-score was -0.0683.
`TACGAAGA` has an E-score of 0.0145.
`ATTAGCTG` gave an E-score of -0.119.
For `GAAGCCCA`, the E-score was -0.131.
With `CAGCCCTG` the E-score was -0.0933.
The E-score of `CGACTTAA` is reported as -0.105.
`CTCGGGCC` has an E-score of 0.183.
`CAAAGCTC` gave an E-score of -0.14.
For `ACAGCGCT`, the E-score was 0.301.
For `CTTGGTCA`, the E-score was -0.2.
`ACATAAAA` has an E-score of -0.105.
The E-score of `AGAACGCT` is reported as -0.0569.

Set 4 — method: competition protein-binding microarray; molecule type: double-stranded DNA, one strand shown; sample: in vitro; tested at: 2 µM; added: Pho4 competitor, 0.05 µM; direction: higher = stronger binding
Target: Centromere-binding protein 1, full length, His-tagged (CBF1, Saccharomyces cerevisiae, UniProt P17106, residues 1-351)
Chain of UniProt P17106 (whole entry, looked up): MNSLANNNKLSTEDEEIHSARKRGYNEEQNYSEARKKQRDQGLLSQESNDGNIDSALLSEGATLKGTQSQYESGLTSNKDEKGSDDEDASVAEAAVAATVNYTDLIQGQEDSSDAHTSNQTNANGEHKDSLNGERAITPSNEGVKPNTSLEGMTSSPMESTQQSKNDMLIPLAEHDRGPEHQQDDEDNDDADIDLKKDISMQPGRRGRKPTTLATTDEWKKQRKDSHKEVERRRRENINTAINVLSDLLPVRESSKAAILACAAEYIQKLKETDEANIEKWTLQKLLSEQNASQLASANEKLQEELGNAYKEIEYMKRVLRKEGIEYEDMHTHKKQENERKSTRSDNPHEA
Notes: whole 60-bp probe, lowest competitor level
For `CGTCCTAGTGATTGGGTAGTGGGTGCCATGAGGAAGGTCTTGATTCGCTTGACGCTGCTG`, the fluorescence intensity was 84.1 a.u.
`CACTTCCTGGGCATCCACATGCGAAGTTGAGCTAAAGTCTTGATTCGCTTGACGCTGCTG` gave a fluorescence intensity of 70.7 a.u.
With `CAACATGCCAAATCGCACGTGACTCGAAACTATGGAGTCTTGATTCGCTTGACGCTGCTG` the fluorescence intensity was 9370 a.u.
The fluorescence intensity of `CATTGGTGTCGTCATCACCTGATGCAGTTGGAGTCGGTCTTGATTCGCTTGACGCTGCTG` is reported as 557 a.u.
For `TGCGCAACAACTTGGACCGTGGGTGTATGTCTAGAAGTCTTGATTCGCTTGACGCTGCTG`, the fluorescence intensity was 57.5 a.u.
`TGTAAATTTTTGTATAATTTCATCATGGAGGTGCATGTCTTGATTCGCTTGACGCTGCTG` has a fluorescence intensity of 99.2 a.u.
With `GATCGATCGAATTTCCCCGTGCCGAAATTGTTCTGCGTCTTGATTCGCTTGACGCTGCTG` the fluorescence intensity was 103 a.u.
`CAGTTTTTAAAATATCACAATTCAGGCGGGTTGCCAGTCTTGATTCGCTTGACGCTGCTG` has a fluorescence intensity of 89.7 a.u.
`TCTATAATAACGTCCCACGTGAAAATACCAACCTCTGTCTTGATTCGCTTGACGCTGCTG` gave a fluorescence intensity of 931 a.u.
For `TTATTCCCGTATCCACACGTGGCCGAAGAATATATAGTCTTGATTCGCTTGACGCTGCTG`, the fluorescence intensity was 863 a.u.
`TAAACAAGTCTCTTACACGTGAAGCACCTACCCCAAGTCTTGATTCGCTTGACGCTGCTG` has a fluorescence intensity of 550 a.u.
With `GCCATTGGATACCGTCACGTGGGTAATGGTAATCTAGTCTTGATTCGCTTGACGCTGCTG` the fluorescence intensity was 3880 a.u.
`CGGGGTTAAGTTTGTATGGTGGGTGGCTTGCAGCAGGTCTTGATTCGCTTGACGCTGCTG` gave a fluorescence intensity of 52.1 a.u.
`GACTTGGCCTAGTTCCACATGTTTTTCATCATCCAGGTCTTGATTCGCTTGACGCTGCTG` has a fluorescence intensity of 92.7 a.u.
The fluorescence intensity of `GCTTGCCGCGAACCTCTCGTGCGATGCCAAAGTGGTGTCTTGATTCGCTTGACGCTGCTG` is reported as 63.4 a.u.
For `ACATAGTCTGATCGGCACGTGAGAAAGTGCCATACCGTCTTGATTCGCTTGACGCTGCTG`, the fluorescence intensity was 1120 a.u.
The fluorescence intensity of `CGCTTCATATAATGTTTTTTGATTTGCAGCAAATGCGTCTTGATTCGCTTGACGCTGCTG` is reported as 95.2 a.u.
`CTTTCCCGATCTTGTCACTGTACTTTAGCACATTTGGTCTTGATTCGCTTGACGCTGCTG` gave a fluorescence intensity of 79.4 a.u.
With `CGTCCTAGCGATTGAAGTGTGGGTGCCATGAGGAAGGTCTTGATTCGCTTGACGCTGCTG` the fluorescence intensity was 74.8 a.u.

A few entries again (set 1):
`AGTGCAAG` gave an E-score of 0.0882.
The E-score of `AGCTATAT` is reported as 0.331.
`AATATTCC` has an E-score of 0.369.
`AGACGTAT` has an E-score of 0.152.
`ATGTACCG` has an E-score of -0.0608.
The E-score of `CTCTGTAC` is reported as 0.0839.
`ATGACGCA` gave an E-score of 0.0578.
